Assay results collected from several papers.
Compare with care: the assays were run in different laboratories. Values joined by “and” are separate records of one study, mostly repeats; a detail may differ. Numbers after ± are the reported error.
rep main protease: Replicase polyprotein 1ab, main protease (rep, Severe acute respiratory syndrome coronavirus 2, UniProt P0DTD1)
Spike glycoprotein: Spike glycoprotein (Severe acute respiratory syndrome coronavirus 2, UniProt P0DTC2)
Chain of UniProt Q7BQ98 (whole entry, looked up): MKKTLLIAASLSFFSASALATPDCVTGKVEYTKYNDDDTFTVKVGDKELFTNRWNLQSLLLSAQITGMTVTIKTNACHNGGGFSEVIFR
Chain of UniProt P78348 (whole entry, unmodified, looked up): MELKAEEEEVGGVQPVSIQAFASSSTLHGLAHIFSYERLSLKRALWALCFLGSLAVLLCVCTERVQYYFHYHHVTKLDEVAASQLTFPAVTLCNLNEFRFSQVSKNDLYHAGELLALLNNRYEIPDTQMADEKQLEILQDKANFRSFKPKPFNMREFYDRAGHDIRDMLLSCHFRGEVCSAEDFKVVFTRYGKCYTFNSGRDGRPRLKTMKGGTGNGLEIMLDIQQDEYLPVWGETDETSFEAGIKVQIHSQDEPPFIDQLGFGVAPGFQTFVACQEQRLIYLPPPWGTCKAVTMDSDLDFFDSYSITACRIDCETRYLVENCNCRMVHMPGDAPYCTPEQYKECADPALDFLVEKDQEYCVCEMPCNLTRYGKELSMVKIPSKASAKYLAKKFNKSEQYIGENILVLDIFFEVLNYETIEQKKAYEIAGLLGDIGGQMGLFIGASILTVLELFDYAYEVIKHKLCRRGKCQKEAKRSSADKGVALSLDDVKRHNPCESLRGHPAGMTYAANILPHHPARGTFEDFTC

Compound = O=C(NCCOc1cc(OCCNC(=O)OCc2cn([C@@H]3O[C@H](CO)[C@H](O[C@H]4O[C@H](CO)[C@H](O)[C@H](O)[C@H]4O)[C@H](O)[C@H]3O)nn2)cc(C(=O)O)c1)OCc1cn([C@@H]2O[C@H](CO)[C@H](O[C@H]3O[C@H](CO)[C@H](O)[C@H](O)[C@H]3O)[C@H](O)[C@H]2O)nn1; target or system = Shiga toxin subunit B (stxB, Shigella dysenteriae, UniProt Q7BQ98); test system = Escherichia coli; endpoint = log IC50; value = -2.9
Compound = CC[C@H](C)[C@H](NC(=O)[C@H](CC(C)C)NC(=O)[C@H](Cc1c[nH]c2ccccc12)NC(=O)[C@H](CCC(N)=O)NC(=O)[C@@H](NC(=O)[C@H](Cc1ccccc1)NC(=O)[C@H](C)NC(=O)[C@H](CCCCNC(=O)COCCOCCNC(=O)COCCOCCNC(=O)CC[C@H](NC(=O)CCCCCCCCCCCCCCCCCCC(=O)O)C(=O)O)NC(=O)[C@H](CCC(N)=O)NC(=O)[C@H](C)NC(=O)[C@@H](NC(=O)[C@H](CCCCN)NC(=O)[C@H](CC(=O)O)NC(=O)[C@H](CC(C)C)NC(=O)C(C)(C)NC(=O)[C@@H](NC(=O)[C@H](CO)NC(=O)[C@H](Cc1ccc(O)cc1)NC(=O)[C@H](CC(=O)O)NC(=O)[C@H](CO)NC(=O)[C@@H](NC(=O)[C@H](Cc1ccccc1)NC(=O)[C@@H](NC(=O)CNC(=O)[C@H](CCC(=O)O)NC(=O)C(C)(C)NC(=O)[C@@H](N)Cc1ccc(O)cc1)[C@@H](C)O)[C@@H](C)O)[C@@H](C)CC)[C@@H](C)CC)C(C)C)C(=O)N[C@@H](C)C(=O)NCC(=O)NCC(=O)N1CCC[C@H]1C(=O)N[C@@H](CO)C(=O)N[C@@H](CO)C(=O)NCC(=O)N[C@@H](C)C(=O)N1CCC[C@H]1C(=O)N1CCC[C@H]1C(=O)N1CCC[C@H]1C(=O)N[C@@H](CO)C(N)=O; test system = healthy subjects; setting = all MAD doses; endpoint = subjects with any TEAE; value = 85.7%
Compound = O=C(NC[C@H](NC(=O)c1cncc2sccc12)c1ccc2ccccc2c1)c1cncs1; target or system = rep main protease; test = enzyme activity, inhibitor; setting = 5 µM, mean of runs; endpoint = inhibition; value = 13.4%
Compound = Nc1ncnc2c([C@@H]3N[C@H](CO)[C@@H](O)[C@H]3O)c[nH]c12; target or system = Nipah henipavirus; test = viral replication; test system = HeLa, Malaysia; setting = 6.3 µM; endpoint = inhibition; value = 3.8%
Compound = CC(C)C[C@@H](C=O)NC(=O)[C@H](CC(C)C)NC(=O)[C@H](CC(C)C)NC(=O)OCc1ccccc1; target or system = rep main protease; test = reporter gene (mKate2), inhibitor; setting = 20 µM; endpoint = inhibition; value = -1.44%
Compound = O=C(N[C@@H]1CCCC[C@]12CCCN(C(=O)c1cc[nH]c(=O)c1)C2)c1cncc2ccccc12; target or system = rep main protease; test = enzyme activity, inhibitor; setting = 5 µM; endpoint = inhibition; value = 10.5%
Compound = O=c1cc(O)c2ccccc2o1; target or system = rep main protease; test = reporter gene (Gaussia luciferase), inhibitor; setting = 20 µM; endpoint = inhibition; value = 2.13%
Compound = Cn1cnc(Cn2c(=O)[nH]/c(=N\c3cc4cn(C)nc4cc3Cl)n(Cc3cc(F)c(F)cc3F)c2=O)n1; test system = human, moderate renal impairment; setting = oral, 375 mg, hypertriglyceridaemia TEAE, Severe severity; endpoint = patients with adverse event; value = 0%
Compound = CC[C@H](C)[C@H](NC(=O)[C@@H]1CCCN1C(=O)[C@H](C)NC(=O)[C@@H]1CSSC[C@@H]2NC(=O)[C@H](CC(=O)O)NC(=O)[C@H](CCCNC(=N)N)NC(=O)[C@H](CCC(=O)O)NC(=O)[C@H](CCCNC(=N)N)NC(=O)CNC(=O)[C@H](CC(=O)O)NC(=O)[C@@H]3CSSC[C@H](NC(=O)[C@H](CCC(=O)O)NC(=O)[C@H](CC(C)C)NC(=O)CNC(=O)[C@H](C)NC(=O)[C@H](CSSC[C@H](NC(=O)[C@H](Cc4ccccc4)NC(=O)[C@@H](N)CO)C(=O)N[C@@H](CC(C)C)C(=O)N[C@@H](C(C)C)C(=O)N[C@@H](CCCCN)C(=O)N[C@@H](Cc4c[nH]c5ccccc45)C(=O)N[C@@H](CCCCN)C(=O)N[C@@H](CCC(N)=O)C(=O)N3)NC2=O)C(=O)N[C@@H](Cc2c[nH]c3ccccc23)C(=O)N[C@@H](CCCCN)C(=O)N[C@@H](CCCNC(=N)N)C(=O)N[C@@H](CO)C(=O)NCC(=O)N[C@@H](CC(N)=O)C(=O)N[C@@H](CCCCN)C(=O)N[C@@H](CO)C(=O)N[C@@H](CO)C(=O)N[C@@H](C(C)C)C(=O)N1)C(=O)N[C@H](C(=O)O)[C@@H](C)O; target or system = Acid-sensing ion channel 1 (ASIC1, Homo sapiens, UniProt P78348, F352A); test = outside-out patch clamp; test system = HEK-293T ASIC1a knockout; setting = 1 µM, F352A mutant; endpoint = deactivation time constant; value = 2 ± 0.7 ms
Compound = O=S(=O)(F)Cc1ccccc1; target or system = rep main protease; test = reporter gene (mKate2), inhibitor; setting = 20 µM; endpoint = inhibition; value = -0.885%
Compound = O=C(/C=C/c1ccc(O)c(O)c1)OC[C@H]1O[C@@H](OCCc2ccc(O)c(O)c2)[C@H](O)[C@@H](O)[C@@H]1O; target or system = Spike glycoprotein; test = binding, BLI; endpoint = kon; value = 322 M⁻¹ s⁻¹
Compound = CCCCN(C)CCNC(=O)c1cc(-c2ccc(Cl)s2)nc2ccccc12; target or system = SARS-CoV-2; test = cytopathic effect; test system = USA_WA1/2020; setting = round 1, 5-point; endpoint = efficacy; value = 76.5%
Compound = CCc1c(C(=O)C(N)=O)c2c(OCC(=O)O)cccc2n1Cc1ccccc1; target or system = Daboia russelii venom phospholipase A2; test = enzyme activity, inhibitor; test system = GA population; setting = 1 µM, together with: NOB substrate; how to read = relative to: venom alone; endpoint = remaining activity; value = 72% and 82.7% and 84%
Compound = O=C1NCc2c1cccc2C(=O)N[C@H](CNC(=O)c1ccnc2[nH]ncc12)c1ccccc1; target or system = rep main protease; test = enzyme activity; setting = 5 µM, mean of runs; endpoint = inhibition; value = 10.2%
Compound = CCc1ccccc1NC(=O)CSC(=O)NNC(=O)[C@H](Cc1c[nH]c2ccccc12)NC(=O)OC(C)(C)C; target or system = rep main protease; test = viral replication, mKate2 reporter; test system = SARS-CoV-2; setting = 20 µM; endpoint = inhibition; value = 0.135%
Compound = CCN(CC)CCCNC(=O)c1ccc(-c2nc(CN3CCc4ccccc43)c(C)o2)cc1; target or system = SARS-CoV-2; test = cytopathic effect; test system = USA_WA1/2020; setting = round 2, 5-point; endpoint = efficacy; value = 127%
Compound = CC1=C2CC(C(=O)N[C@@H]3CN(C(=O)c4cc5ccccc5o4)Cc4nccn4C3)=CN=C2NN1; target or system = rep main protease; test = Mpro enzyme activity, inhibitor; setting = 5 µM, high-throughput screen, single run; endpoint = inhibition; value = 10.7%
Compound = CC1(C)CC[C@]2(C(=O)O[C@@H]3O[C@H](CO)[C@@H](O)[C@H](O)[C@H]3O)CC[C@]3(C)C(=CC[C@@H]4[C@@]5(C)CC[C@H](O[C@@H]6O[C@H](C(=O)O)[C@@H](O)[C@H](O)[C@H]6O)C(C)(C)[C@@H]5CC[C@]43C)[C@@H]2C1; target or system = Spike glycoprotein; test = binding, BLI; endpoint = koff; value = 0.359 s⁻¹

For quick reference, copied from above:
Compound = CC[C@H](C)[C@H](NC(=O)[C@H](CC(C)C)NC(=O)[C@H](Cc1c[nH]c2ccccc12)NC(=O)[C@H](CCC(N)=O)NC(=O)[C@@H](NC(=O)[C@H](Cc1ccccc1)NC(=O)[C@H](C)NC(=O)[C@H](CCCCNC(=O)COCCOCCNC(=O)COCCOCCNC(=O)CC[C@H](NC(=O)CCCCCCCCCCCCCCCCCCC(=O)O)C(=O)O)NC(=O)[C@H](CCC(N)=O)NC(=O)[C@H](C)NC(=O)[C@@H](NC(=O)[C@H](CCCCN)NC(=O)[C@H](CC(=O)O)NC(=O)[C@H](CC(C)C)NC(=O)C(C)(C)NC(=O)[C@@H](NC(=O)[C@H](CO)NC(=O)[C@H](Cc1ccc(O)cc1)NC(=O)[C@H](CC(=O)O)NC(=O)[C@H](CO)NC(=O)[C@@H](NC(=O)[C@H](Cc1ccccc1)NC(=O)[C@@H](NC(=O)CNC(=O)[C@H](CCC(=O)O)NC(=O)C(C)(C)NC(=O)[C@@H](N)Cc1ccc(O)cc1)[C@@H](C)O)[C@@H](C)O)[C@@H](C)CC)[C@@H](C)CC)C(C)C)C(=O)N[C@@H](C)C(=O)NCC(=O)NCC(=O)N1CCC[C@H]1C(=O)N[C@@H](CO)C(=O)N[C@@H](CO)C(=O)NCC(=O)N[C@@H](C)C(=O)N1CCC[C@H]1C(=O)N1CCC[C@H]1C(=O)N1CCC[C@H]1C(=O)N[C@@H](CO)C(N)=O; test system = healthy subjects; setting = all MAD doses; endpoint = subjects with any TEAE; value = 85.7%
Compound = CCN(CC)CCCNC(=O)c1ccc(-c2nc(CN3CCc4ccccc43)c(C)o2)cc1; target or system = SARS-CoV-2; test = cytopathic effect; test system = USA_WA1/2020; setting = round 2, 5-point; endpoint = efficacy; value = 127%
